Measurements of several laboratories.
Protocols differ between the studies behind these lines.
Target: Ephrin type-B receptor 4 (EPHB4, Homo sapiens, UniProt P54760)
One construct used (P54760 16-987): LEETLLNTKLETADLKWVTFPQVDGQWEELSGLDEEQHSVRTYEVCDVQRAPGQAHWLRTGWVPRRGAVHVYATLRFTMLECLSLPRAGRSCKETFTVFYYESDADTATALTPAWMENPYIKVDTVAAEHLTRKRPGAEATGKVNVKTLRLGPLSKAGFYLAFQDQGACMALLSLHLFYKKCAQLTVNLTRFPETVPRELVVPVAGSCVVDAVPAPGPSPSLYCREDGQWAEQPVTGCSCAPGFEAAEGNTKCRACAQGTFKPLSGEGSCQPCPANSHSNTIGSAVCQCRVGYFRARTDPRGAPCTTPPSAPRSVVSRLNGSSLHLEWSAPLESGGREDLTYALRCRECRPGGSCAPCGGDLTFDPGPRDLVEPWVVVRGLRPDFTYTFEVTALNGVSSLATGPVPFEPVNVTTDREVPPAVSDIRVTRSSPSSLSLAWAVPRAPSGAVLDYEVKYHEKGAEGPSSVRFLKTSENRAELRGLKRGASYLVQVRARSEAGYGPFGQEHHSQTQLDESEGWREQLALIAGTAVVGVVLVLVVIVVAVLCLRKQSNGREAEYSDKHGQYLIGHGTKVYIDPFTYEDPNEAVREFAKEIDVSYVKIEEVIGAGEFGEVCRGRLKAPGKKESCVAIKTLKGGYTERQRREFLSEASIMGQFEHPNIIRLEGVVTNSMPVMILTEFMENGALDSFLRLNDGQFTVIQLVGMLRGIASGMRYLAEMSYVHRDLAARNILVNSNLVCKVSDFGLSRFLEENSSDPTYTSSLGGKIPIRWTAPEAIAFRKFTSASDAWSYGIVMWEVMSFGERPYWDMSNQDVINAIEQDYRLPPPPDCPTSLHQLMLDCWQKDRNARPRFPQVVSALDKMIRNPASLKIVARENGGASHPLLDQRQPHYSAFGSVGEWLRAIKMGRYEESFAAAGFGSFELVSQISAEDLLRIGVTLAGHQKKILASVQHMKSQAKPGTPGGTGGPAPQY

SMILES	test	conditions	how to read	measurement	result
C=CC(=O)N1CCCC(n2c(=O)c3ncccc3n(Cc3ccc(Oc4ccccc4)cc3)c2=O)C1 (stereo not shown)	cell-free assay, competition with immobilised ligand	1 µM	–	remaining binding	100%
CN1CCN(Cc2ccc(-c3ccc(CO[C@H]4CCC[C@@H]4NC(=O)c4cc(-c5cnn(C)c5)cnc4N)cc3)cc2)CC1	enzyme activity, inhibitor	0.1 µM	–	inhibition	-1%
O=c1c(-c2ccc(Cl)c(CN3CCOCC3)c2)coc2cc(O)ccc12	enzyme activity, inhibitor	1 µM	–	remaining activity	89%
C=CC(=O)N1CCc2ccc(-n3c(=O)ccc4cnc5ccc(-c6cnn(C)c6)cc5c43)cc21	KINOMEscan	1 µM	relative to: DMSO control	remaining binding	100%
C=CC(=O)Nc1cccc(-c2cnc3[nH]cc(C(=O)NC(C)(C)C)c3n2)c1	enzyme activity, inhibitor	0.1 µM	–	inhibition	-3%
Nc1ncc2c(n1)-c1c([nH]c3ccc(C4=CCOCC4)cc13)CCC2	binding, competition with immobilised ligand	1 µM	–	remaining binding	84%
COc1cc(Nc2nc(C)cc(-c3cnn4nc(OC)ccc34)n2)cc(C(F)(F)F)c1	inhibitor	1 µM	relative to: control	remaining activity	94%
COc1ccc(NC(=O)Nc2ccc3c(c2)C(=O)N(C(C)CO)CC(C)C(CN(C)Cc2ccc4c(c2)OCO4)O3)cc1 (stereo not shown)	kinase activity, KinaseProfiler	0.03 µM, species human	relative to: control	remaining activity	99%
CNC1C[S+]2CC[S+]3CC[S+](C1)[Ru-4]321([N]=C=S)[n]2c3ccc(OC)cc3c3c4c(c5cc(F)c[n+]1c5c32)C(=O)NC4=O (stereo not shown)	KinomeScan	0.1 µM	relative to: untreated	remaining binding	90%
CNC(=O)C[C@H](Cc1ccc(C#N)cc1)NC(=O)c1cc(-c2ccc(CN[C@H](C)c3ccc(C)cc3)o2)ccc1Cl	enzyme activity, inhibitor	1 µM	–	activity vs control	90%
Cc1cccc(O[C@H]2CCC[C@@H](C(C)CNCc3ccncc3)C2)c1 (relative stereo)	cell-free assay	1 µM	–	inhibition	-3%
Cc1nc2c(F)cc(-c3nc(Nc4ccc(CNC(=O)CCCCCCC(=O)NO)cc4)ncc3F)cc2n1C(C)C	enzyme activity, inhibitor	1 µM	–	inhibition	61%
Cc1cnc2nc1Nc1cccc(c1)COC/C=C/COCc1cc(ccc1OCCN1CCOCC1)N2	binding	0.1 µM	–	remaining binding	100%

A few entries again:
SMILES	test	conditions	how to read	measurement	result
CN1CCN(Cc2ccc(-c3ccc(CO[C@H]4CCC[C@@H]4NC(=O)c4cc(-c5cnn(C)c5)cnc4N)cc3)cc2)CC1	enzyme activity, inhibitor	0.1 µM	–	inhibition	-1%
